# Measured values pooled from the literature.
# Each numbered part is a random draw from the data of one study; scales do not carry over between parts. Substitutions count along the parent as printed.

# Series 1 — technique: DHFR PCA, deep sequencing; matrix: yeast; added: (+)-ABA 0 µM; baseline: wild-type fitted maximum; reading: higher = stronger binding
# Target: ABI1, truncated, D143A, DHFR fusion (Arabidopsis thaliana)
# Notes: methotrexate growth selection, single substitutions
# Starting sequence: PYL1, truncated, DHFR fusion (Arabidopsis thaliana); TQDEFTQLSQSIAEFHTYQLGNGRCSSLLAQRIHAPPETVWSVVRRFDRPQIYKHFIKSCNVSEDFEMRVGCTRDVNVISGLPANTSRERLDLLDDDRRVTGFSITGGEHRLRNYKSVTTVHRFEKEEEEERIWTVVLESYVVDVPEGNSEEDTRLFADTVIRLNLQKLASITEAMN; partner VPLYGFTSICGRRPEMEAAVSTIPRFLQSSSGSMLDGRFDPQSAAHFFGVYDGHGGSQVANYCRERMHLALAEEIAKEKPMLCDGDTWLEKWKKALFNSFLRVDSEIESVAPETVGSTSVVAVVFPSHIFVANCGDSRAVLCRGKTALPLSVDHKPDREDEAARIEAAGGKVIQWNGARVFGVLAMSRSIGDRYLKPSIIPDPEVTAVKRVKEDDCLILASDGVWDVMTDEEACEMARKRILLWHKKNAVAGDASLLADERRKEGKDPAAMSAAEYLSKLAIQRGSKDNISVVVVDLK
Variant,relative binding score [%]
I79Y,23.7
S80Y,61.5
S42K,20.3
V121A,5.38
T173C,68.3
R132M,22.5
D96G,2.61
V70P,30.4
E174K,3.62
V137G,1.21
V136R,-7.3
T39L,49.1
D65Q,10.8
N165T,9.11
V161W,76.7
G81Y,5.7

# Series 2 — technique: protein binding microarray; form: double-stranded DNA, one strand shown; matrix: in vitro; concentration: not given; baseline: not given; reading: higher = stronger binding
# Target: Histone acetyltransferase KAT6A, winged helix 1, GST fusion (KAT6A, Homo sapiens, UniProt Q92794, residues 1-85)
# Notes: 8-mer, flanks averaged, mean of 2 arrays, mostly near background
# Target sequence (chain): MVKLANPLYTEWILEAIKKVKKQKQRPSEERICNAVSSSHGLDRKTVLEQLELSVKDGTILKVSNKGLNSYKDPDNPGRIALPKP
Oligonucleotide,E-score
GGCAGGGA,-0.107
ACGCGGGA,0.35
ATCACCAG,-0.111
AACATACA,-0.219
AGCGGCGA,0.34
GCTCCTTA,-0.0081
GTGATCGA,-0.16
CAAGTAGC,-0.274
AAATTGGA,-0.272
TATGTTGA,0.0442
ATGCCGGG,0.379
CATACCAC,-0.157
AATTATGC,0.0354
GCGGACGA,0.23
ACGATAGC,-0.0187
CCACAGCA,-0.198
AACAGTGG,-0.226
CAACCAGG,-0.225

# Series 3 — target: UBE2M UBC core domain (UniProt P61081); technique: yeast two-hybrid; matrix: yeast; notes: mostly zero background; baseline: not given; reading: higher = stronger interaction
# B1: RNF186 RING domain (UniProt Q9NXI6); chain HSGSTECDLECLVCREPYSCPRLPKLLACQHAFCAICLKLLLCVQDNTWSITCPLCRKVTAVPGGLI
# B2: NFX1 RING domain (UniProt Q12986); chain IEQLTTEKYECMVCCELVRVTAPVWSCQSCYHVFHLNCIKKWARSPASQADGQSGWRCPACQNVSAHVPNTY
# B3: CNOT4 RING domain (UniProt O95628); chain MSRSPDAKEDPVECPLCMEPLEIDDINFFPCTCGYQICRFCWHRIRTDENGLCPACRKPYPED
# B4: ZMYND11 RING domain (UniProt Q15326); chain DEIDWETENHDWYCFECHLPGEVLICDLCFRVYHSKCLSDEFRLRDSSSPWQCPVCRSIKKKNTNKQEM
# B5: RNF103 RING domain (UniProt O00237); chain WPADMLHCTECVVCLENFENGCLLMGLPCGHVFHQNCIVMWLAGGRHCCPVCRWPSYKKKQPY
# B6: TRIM11 RING domain (UniProt Q96F44); chain LSTNLQEEATCAICLDYFTDPVMTDCGHNFCRECIRRCWGQPEGPYACPECRELSPQRNLRP
# B7: MKRN3 RING domain (UniProt Q13064); chain FAVQRGMDKVCGICMEVVYEKANPNDRRFGILSNCNHSFCIRCIRRWRSARQFENRIVKSCPQCRVTSELVIPSE
# B8: HLTF RING domain (UniProt Q14527); chain LILSSGSDEECAICLDSLTVPVITHCAHVFCKPCICQVIQNEQPHAKCPLCRNDIHEDNLLE
# B9: RING1 RING domain (UniProt Q06587); chain SPRSLHSELMCPICLDMLKNTMTTKECLHRFCSDCIVTALRSGNKECPTCRKKLVSKRSLR
# B10: VPS8 RING domain (UniProt Q8N3P4); chain TRGLNPKQDYCSICLQQYKRRQEMADEIIVFSCGHLYHSFCLQNKECTVEFEGQTRWTCYKCSSSNKVGKLSE
# B11: MARCHF1 RING domain (UniProt Q8TCQ1); chain TAPRSQSRLSVCPSTQDICRICHCEGDEESPLITPCRCTGTLRFVHQSCLHQWIKSSDTRCCELCKYDFIMETKLKPLRKWE
# B12: RUFY1 RING domain (UniProt Q96T51); chain QALKGHAWLKDDEATHCRQCEKEFSISRRKHHCRNCGHIFCNTCSSNELALPSYPKPVRVCDSCHTLLLQRCSSTAS
# Target sequence (chain): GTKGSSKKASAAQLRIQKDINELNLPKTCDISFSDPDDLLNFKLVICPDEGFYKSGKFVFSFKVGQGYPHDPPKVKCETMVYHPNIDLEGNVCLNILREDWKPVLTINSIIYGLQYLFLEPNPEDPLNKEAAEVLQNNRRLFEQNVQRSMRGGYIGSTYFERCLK
Molecule,lacZ reporter activity
B1 (RNF186 RING domain),0
LVKDFNPYITCYICKGYLIKPTTVTECLHTFCKTCIVQHFEDSNDCPRCGNQVHETNPLE (PCGF5 RING domain (UniProt Q86SE9)),0
B2 (NFX1 RING domain),0
B3 (CNOT4 RING domain),0
B4 (ZMYND11 RING domain),0
B5 (RNF103 RING domain),0
B6 (TRIM11 RING domain),0
B7 (MKRN3 RING domain),0
B8 (HLTF RING domain),0
B9 (RING1 RING domain),0
EIKEYKARLTCPCCNTRKKDAVLTKCFHVFCFECVRGRYEARQRKCPKCNAAFGAHDFHR (RNF40 RING domain (UniProt O75150)),0
B10 (VPS8 RING domain),0
B11 (MARCHF1 RING domain),0
B12 (RUFY1 RING domain),0
ASEEEFQFLRCQQCQAEAKCPKLLPCLHTLCSGCLEASGMQCPICQAPWPLGADTP (PML RING domain (UniProt P29590)),0
ASPKIFQKTKCSICNSALELPSVHFLCGHSFHQHCFESYSESDADCPTCLPENRKVMDMI (VPS11 RING domain (UniProt Q9H270)),0
FAEQPSVKLCCQLCCSVFKDPVITTCGHTFCRRCALKSEKCPVDNVKLTVVVNNI (TRAF7 RING domain (UniProt Q6Q0C0)),0

# Series 4 — technique: RNAcompete; form: RNA; matrix: in vitro; concentration: 20 nM; notes: 7-mer, probes averaged, single round; baseline: mean of 7-mers; reading: higher = stronger binding
# Target: PABPC1L2, full length, GST fusion (mouse, UniProt A0ABA7IW68)
# Residues (chain): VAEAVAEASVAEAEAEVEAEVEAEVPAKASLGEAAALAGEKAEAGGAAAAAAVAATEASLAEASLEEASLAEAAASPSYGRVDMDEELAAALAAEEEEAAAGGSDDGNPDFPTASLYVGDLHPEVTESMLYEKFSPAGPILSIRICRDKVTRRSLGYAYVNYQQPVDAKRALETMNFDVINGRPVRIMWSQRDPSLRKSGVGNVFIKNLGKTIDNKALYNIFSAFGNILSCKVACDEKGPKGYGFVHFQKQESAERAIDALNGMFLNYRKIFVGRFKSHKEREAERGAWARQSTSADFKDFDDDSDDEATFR
Oligonucleotide,7-mer Z-score
UCAAGCC,-0.193
GAGCUCG,-0.353
UCUCGUU,-0.438
CGUUCGC,-0.519
CCUUAUU,-0.338
GGUGGCC,-0.0446
UCGGUUA,-0.124
CUAACAU,-0.26
GACUAAC,-0.106
AUAGCAA,0.00979
CAGUGAA,0.017
GGUUAGU,-0.0826
CUAAGUG,-0.106
GUUCUCA,-0.45
CUUCCAA,-0.0989
GGGGAUG,0.363
AAAUACC,1.32
AAGCCCC,-0.264
UACGCAU,-0.191
AGCAUUA,-0.0681
UUUUAUU,-0.103
UAUAGUG,-0.211
CAUUAGU,-0.199
GCAUGGC,-0.0554
AUGUAUA,-0.0228

# Series 5 — target: CCNA1, cyclin fold, Cln2 fusion (human); technique: yeast growth competition, sequencing; matrix: yeast; notes: weak parent motif; baseline: not given; reading: higher = stronger binding
# Starting sequence: RB1 docking peptide (human); PKPLKKLRFDIEG; partner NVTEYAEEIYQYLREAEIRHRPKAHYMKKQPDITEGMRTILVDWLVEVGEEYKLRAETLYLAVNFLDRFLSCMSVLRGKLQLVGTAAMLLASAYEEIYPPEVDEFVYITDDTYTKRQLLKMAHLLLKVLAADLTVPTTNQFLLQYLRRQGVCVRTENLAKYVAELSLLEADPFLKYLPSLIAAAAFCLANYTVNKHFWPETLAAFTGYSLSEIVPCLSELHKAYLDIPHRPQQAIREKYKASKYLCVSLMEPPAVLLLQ
Variant,normalised enrichment score
D10L,0.0195
R8Q,0.187
E12G,0.409
K6R,0.358
P1H,0.314
F9Y,-0.0724
L4F,0.458
D10H,0.26
D10T,-0.153
I11K,0.201
E12W,0.268
K6Q,0.0667
D10G,1.11
K2C,0.357
K5E,0.454
D10K,0.341
K5D,0.0804
K6A,0.555
R8M,0.245
L4S,0.406
P1D,0.549
K5F,-0.0129
P1Q,0.107

# Series 6 — target: CEBPA, bZIP domain (human); technique: DHFR protein complementation; matrix: yeast; baseline: wild-type JUN-FOS pair; reading: higher = stronger binding
# Notes: single substitutions, most at no-binding floor
# Starting sequence: JUN, bZIP domain (human); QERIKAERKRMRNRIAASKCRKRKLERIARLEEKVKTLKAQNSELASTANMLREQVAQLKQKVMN; partner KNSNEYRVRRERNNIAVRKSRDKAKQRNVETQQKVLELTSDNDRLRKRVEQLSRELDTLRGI
Variant,binding fitness
T37R,-1.41 natural log
T37W,-1.49 natural log
Q41M,-1.51 natural log
K34N,-1.48 natural log
Q41P,-1.53 natural log
L31F,-1.51 natural log
E44W,-1.37 natural log
Q41G,-1.48 natural log
E33D,-1.42 natural log
R53M,-1.43 natural log
A57P,-1.52 natural log
S47N,-1.42 natural log
L52Y,-1.42 natural log
A29W,-1.51 natural log
A46G,-1.45 natural log
L59R,-1.53 natural log
S43K,-1.34 natural log
N42C,-1.56 natural log
E54N,-1.12 natural log
E44R,-1.46 natural log
Q55L,-1.38 natural log

# Repeated from above (series 2):
Oligonucleotide,E-score
AACAGTGG,-0.226
CAACCAGG,-0.225
GTGATCGA,-0.16
ACGCGGGA,0.35
ACGATAGC,-0.0187
ATCACCAG,-0.111
AATTATGC,0.0354
CAAGTAGC,-0.274
TATGTTGA,0.0442
AACATACA,-0.219
AAATTGGA,-0.272
ATGCCGGG,0.379
GGCAGGGA,-0.107
CATACCAC,-0.157
CCACAGCA,-0.198
AGCGGCGA,0.34
